# Experimental data gathered from unrelated publications.
# A part holds a random share of what one study measured.
# UniProt P42336, sequence (whole entry, unmodified, looked up): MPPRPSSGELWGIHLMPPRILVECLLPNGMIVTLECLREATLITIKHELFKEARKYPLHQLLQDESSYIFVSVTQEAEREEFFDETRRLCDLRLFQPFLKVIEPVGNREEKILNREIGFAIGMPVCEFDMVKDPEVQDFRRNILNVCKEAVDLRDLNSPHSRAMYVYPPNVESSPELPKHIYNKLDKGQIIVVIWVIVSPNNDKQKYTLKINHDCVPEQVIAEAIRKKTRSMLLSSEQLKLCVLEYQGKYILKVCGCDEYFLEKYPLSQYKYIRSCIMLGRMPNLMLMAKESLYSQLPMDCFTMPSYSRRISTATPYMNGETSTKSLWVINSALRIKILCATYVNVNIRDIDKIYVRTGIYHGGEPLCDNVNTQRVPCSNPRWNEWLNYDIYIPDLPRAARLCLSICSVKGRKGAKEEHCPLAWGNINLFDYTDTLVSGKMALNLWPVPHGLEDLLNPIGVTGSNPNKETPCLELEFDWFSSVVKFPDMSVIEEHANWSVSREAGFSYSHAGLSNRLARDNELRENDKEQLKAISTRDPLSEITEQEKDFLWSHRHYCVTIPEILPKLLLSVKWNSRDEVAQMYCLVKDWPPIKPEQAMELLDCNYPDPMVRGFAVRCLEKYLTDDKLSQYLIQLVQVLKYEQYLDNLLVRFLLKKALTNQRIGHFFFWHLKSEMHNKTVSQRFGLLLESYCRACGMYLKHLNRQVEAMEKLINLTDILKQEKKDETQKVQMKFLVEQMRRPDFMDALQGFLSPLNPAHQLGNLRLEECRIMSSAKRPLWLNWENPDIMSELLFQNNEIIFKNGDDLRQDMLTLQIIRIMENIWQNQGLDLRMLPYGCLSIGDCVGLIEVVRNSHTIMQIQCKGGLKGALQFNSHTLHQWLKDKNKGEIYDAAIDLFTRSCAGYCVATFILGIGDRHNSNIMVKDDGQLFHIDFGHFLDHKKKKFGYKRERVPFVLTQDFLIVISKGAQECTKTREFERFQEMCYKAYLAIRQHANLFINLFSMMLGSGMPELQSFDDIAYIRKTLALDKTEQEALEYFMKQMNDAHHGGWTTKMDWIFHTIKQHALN
# UniProt Q7KZI7, sequence (whole entry, looked up): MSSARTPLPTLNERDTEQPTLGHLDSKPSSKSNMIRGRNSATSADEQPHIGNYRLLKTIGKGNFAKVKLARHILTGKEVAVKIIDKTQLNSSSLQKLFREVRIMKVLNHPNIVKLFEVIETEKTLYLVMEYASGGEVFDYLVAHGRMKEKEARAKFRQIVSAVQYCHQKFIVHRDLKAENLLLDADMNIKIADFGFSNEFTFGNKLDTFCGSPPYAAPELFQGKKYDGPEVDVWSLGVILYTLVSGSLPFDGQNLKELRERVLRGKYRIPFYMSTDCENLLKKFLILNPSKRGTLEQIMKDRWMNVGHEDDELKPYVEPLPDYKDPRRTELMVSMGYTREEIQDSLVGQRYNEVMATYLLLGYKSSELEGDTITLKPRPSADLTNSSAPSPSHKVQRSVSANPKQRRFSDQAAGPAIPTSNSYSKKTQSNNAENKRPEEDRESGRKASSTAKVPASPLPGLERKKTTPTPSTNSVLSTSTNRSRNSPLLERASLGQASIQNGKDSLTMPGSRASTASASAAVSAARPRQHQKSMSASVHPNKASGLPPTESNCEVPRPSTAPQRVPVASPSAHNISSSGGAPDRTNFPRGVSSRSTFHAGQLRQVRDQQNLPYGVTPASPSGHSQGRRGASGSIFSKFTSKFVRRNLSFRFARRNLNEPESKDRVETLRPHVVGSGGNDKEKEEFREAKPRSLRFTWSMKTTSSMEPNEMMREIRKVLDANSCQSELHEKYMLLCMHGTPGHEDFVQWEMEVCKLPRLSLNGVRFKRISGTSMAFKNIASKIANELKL
# UniProt P29320, sequence (whole entry, looked up): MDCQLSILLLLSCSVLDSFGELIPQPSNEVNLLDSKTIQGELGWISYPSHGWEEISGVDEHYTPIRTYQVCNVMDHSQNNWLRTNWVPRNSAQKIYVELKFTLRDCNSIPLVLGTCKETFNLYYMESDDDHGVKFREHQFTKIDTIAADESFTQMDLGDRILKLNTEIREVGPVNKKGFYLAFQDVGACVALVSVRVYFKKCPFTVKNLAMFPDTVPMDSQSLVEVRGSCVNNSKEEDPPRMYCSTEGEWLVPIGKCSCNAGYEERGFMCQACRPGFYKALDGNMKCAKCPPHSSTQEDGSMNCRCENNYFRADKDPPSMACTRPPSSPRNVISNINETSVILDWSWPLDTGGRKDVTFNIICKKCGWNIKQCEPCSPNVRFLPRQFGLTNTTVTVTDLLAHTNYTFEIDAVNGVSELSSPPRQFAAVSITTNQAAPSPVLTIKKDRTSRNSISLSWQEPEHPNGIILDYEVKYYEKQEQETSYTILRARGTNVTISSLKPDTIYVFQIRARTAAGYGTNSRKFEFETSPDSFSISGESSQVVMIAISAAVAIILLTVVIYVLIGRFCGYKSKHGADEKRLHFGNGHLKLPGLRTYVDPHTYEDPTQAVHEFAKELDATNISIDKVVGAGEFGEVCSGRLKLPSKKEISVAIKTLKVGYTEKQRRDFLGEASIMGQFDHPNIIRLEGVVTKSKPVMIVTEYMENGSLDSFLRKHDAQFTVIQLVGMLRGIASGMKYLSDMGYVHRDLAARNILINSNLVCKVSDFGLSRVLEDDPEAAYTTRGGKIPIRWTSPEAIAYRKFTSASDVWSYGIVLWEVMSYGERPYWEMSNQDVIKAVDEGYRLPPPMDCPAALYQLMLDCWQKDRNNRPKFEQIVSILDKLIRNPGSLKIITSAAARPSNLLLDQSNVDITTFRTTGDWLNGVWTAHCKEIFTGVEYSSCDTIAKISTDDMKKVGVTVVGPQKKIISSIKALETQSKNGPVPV
# UniProt P11802, sequence (whole entry, looked up): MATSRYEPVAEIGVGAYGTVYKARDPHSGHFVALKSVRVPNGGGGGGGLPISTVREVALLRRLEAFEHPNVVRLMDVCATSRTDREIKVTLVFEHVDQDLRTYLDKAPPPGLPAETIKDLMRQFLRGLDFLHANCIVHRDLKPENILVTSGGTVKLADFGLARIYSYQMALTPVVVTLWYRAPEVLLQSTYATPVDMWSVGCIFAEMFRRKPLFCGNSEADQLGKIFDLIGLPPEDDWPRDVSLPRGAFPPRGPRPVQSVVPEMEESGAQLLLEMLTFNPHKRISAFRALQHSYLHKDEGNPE
# UniProt Q16566, sequence (whole entry, looked up): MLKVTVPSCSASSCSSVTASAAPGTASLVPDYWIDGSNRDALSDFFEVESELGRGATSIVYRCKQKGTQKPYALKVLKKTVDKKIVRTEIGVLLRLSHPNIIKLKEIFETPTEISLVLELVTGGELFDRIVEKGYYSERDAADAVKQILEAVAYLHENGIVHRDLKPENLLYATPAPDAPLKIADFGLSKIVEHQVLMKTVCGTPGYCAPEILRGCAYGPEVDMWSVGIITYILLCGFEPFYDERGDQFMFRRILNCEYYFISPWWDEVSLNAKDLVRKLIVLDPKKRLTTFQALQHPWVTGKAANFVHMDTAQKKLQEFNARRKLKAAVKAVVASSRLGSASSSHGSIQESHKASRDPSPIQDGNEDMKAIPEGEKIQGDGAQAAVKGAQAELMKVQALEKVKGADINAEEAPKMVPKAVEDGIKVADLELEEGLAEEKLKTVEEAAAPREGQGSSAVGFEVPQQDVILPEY

# Set 1
# Host: human
# Medium: microsomes or S9
# Tested at: 2 µM
# Time: 0.5 h
SMILES,remaining compound
CCc1cc2c(NCCO)nc(-c3ccccc3)nc2s1,62.2%
O=c1[nH]nc2c3c(nc(-c4ccncc4)n12)CCCC3,79.6%
CC1CCC(NS(=O)(=O)CC(=O)Nc2cc(-c3ccsc3)nn2C)CC1 (centres unmarked),26.2%
Cc1cc(C(=O)Nc2nnc3n2CCCC3)n(C)n1,95%
CCN(CC)C(=O)c1sc(NC(=O)c2cc(OC)cc(OC)c2)c(C(=O)OC(C)C)c1C,16.7%
N#Cc1cccc(-c2cncc3cc(-c4ccccc4C(=O)O)oc23)c1,83.2%

# Set 2
# Target: Death-associated protein kinase 1 (DAPK1, Homo sapiens, UniProt P53355)
# UniProt P53355, sequence (whole entry, looked up): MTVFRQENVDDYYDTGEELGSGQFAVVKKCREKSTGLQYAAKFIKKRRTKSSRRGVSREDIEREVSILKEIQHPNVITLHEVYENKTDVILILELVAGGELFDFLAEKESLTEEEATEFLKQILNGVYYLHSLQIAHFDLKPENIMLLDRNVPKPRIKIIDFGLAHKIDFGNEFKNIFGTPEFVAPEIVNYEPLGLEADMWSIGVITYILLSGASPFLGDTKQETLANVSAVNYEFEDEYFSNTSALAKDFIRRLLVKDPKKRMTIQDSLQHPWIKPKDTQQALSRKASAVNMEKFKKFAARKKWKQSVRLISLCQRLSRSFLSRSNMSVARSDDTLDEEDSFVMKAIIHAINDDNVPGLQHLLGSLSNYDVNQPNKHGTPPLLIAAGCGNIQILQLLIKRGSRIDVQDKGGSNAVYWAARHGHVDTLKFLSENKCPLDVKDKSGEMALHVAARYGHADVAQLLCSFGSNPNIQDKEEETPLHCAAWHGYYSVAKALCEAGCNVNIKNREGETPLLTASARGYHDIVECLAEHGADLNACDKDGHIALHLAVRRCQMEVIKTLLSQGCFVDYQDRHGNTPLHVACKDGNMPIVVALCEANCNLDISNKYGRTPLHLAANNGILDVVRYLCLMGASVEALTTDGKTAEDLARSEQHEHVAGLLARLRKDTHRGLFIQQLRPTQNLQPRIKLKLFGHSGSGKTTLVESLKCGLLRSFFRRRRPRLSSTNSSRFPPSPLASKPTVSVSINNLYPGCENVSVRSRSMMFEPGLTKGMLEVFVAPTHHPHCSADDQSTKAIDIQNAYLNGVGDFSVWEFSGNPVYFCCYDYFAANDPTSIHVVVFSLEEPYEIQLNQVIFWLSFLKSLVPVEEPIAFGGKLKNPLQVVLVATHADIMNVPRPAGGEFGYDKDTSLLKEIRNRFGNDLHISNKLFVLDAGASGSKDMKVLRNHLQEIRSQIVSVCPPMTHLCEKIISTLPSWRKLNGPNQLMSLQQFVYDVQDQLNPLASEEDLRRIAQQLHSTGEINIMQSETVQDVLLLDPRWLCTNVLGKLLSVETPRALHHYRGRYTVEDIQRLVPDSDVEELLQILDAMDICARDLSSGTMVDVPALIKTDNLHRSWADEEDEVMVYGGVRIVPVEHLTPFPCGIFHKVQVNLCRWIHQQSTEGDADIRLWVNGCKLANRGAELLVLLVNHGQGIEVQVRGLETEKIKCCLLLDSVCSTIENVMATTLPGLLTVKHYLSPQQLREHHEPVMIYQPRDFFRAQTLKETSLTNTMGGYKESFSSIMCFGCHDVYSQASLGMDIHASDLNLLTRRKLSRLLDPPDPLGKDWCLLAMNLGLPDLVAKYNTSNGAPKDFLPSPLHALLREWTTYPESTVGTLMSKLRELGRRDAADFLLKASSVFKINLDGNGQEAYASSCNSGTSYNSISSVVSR
# Effect on: enzyme activity
# Action: inhibitor
# Tested at: 0.5 µM
# Reference: control
Compound,remaining activity [%]
O=C1NC(=O)C(c2cn(CCCO)c3ncccc23)=C1c1cnccn1,74.4
Cc1ccc(Nc2nccc(N(C)c3ccc4c(C)n(C)nc4c3)n2)cc1S(N)(=O)=O,105
Nc1ncnc2n[nH]c(Nc3ccc(F)cc3)c12,116
COc1cc2ncnc(Nc3ccc(F)c(Cl)c3)c2cc1OCCCN1CCOCC1,109
CC(C)[C@H](CO)Nc1nc(Nc2cc(N)cc(Cl)c2)c2ncn(C(C)C)c2n1,95.3
Cc1cccc(-c2[nH]c(C(C)(C)C)nc2-c2ccc3c(c2)OCO3)n1,102
COc1ccc(CNC(=O)Nc2ncc([N+](=O)[O-])s2)cc1,105
O=C(O)c1ccc2c3c1cccc3c(=O)n1c3ccccc3nc21,40.9
Nc1ccc2ncnc(NCCc3ccc(Oc4ccccc4)cc3)c2c1,110
COc1cc2nccc(Oc3ccc(NC(=S)NC(=O)c4ccccc4C)cc3)c2cc1OC,101
C#Cc1cccc(Nc2ncnc3cc(OCCOC)c(OCCOC)cc23)c1,103
O=C(Nc1cccc(Nc2cc(Nc3cccc(C(F)(F)F)c3)ncn2)c1)C1CC1,94.7
Cn1sc(=O)n(Cc2ccccc2)c1=O,97.9
O=C(CCCc1ccc(-c2ccccc2F)cc1)Nc1ccc(O)cc1,110
N#CC(C#N)=C(N)/C(C#N)=C/c1ccc(O)cc1,92.7

# Set 3
# SMILES: CSc1cccnc1N1CCN(Cc2nc3ccccc3[nH]2)CC1
# Effect on: cell-free assay
# Method: competition with immobilised ligand
# Tested at: 1 µM
target,remaining binding
"ULK3 (Homo sapiens, UniProt Q6PHR2)",81%
"EPHA3 (Homo sapiens, UniProt P29320)",100%
"PIK3CA (Homo sapiens, UniProt P42336)",69%
"MARK2 (Homo sapiens, UniProt Q7KZI7)",100%
"PDPK1 (Homo sapiens, UniProt O15530)",99%
"CDK8 (Homo sapiens, UniProt P49336)",87%
"NEK1 (Homo sapiens, UniProt Q96PY6)",100%

# Set 4
# Structure (SMILES): COc1ccc2[nH]c3c4[nH]c5ccc(OC)cc5c4c4c(c3c2c1)C(=O)NC4=O
# Tested at: 1 µM
target,assay,conditions,scale,remaining binding
"CAMK4 (Homo sapiens, UniProt Q16566)",competitive binding panel,,reference: vehicle,98%
"PIK3CA (Homo sapiens, UniProt P42336, E545K)",competitive binding panel,,reference: vehicle,84%
"CDK4 (Homo sapiens, UniProt P11802)",competitive binding panel,,reference: vehicle,100%
"RPS6KB1 (Homo sapiens, UniProt P23443)",competitive binding,S6K1,,21%
"YES1 (Homo sapiens, UniProt P07947)",competitive binding,YES,,73%
"TNK1 (Homo sapiens, UniProt Q13470)",competitive binding panel,,reference: vehicle,29%
"NEK9 (Homo sapiens, UniProt Q8TD19)",competitive binding panel,,reference: vehicle,100%

# Repeated from above (set 3):
target,remaining binding
"NEK1 (Homo sapiens, UniProt Q96PY6)",100%
"CDK8 (Homo sapiens, UniProt P49336)",87%
"MARK2 (Homo sapiens, UniProt Q7KZI7)",100%
"PIK3CA (Homo sapiens, UniProt P42336)",69%
"EPHA3 (Homo sapiens, UniProt P29320)",100%
